Assay results of several laboratories.
Lines come from different studies, so protocols differ. ± marks the error that the study gave.

`CCCCCCCCCCCCCCCC(=O)NCCO` has a solubility of less than 16 µg/mL (hydrochloride buffer; 12 h, pH 1.2, 37 °C).
With `CC(C)Nc1ccnc(Nc2cccc(-c3ccccc3)c2)n1` the solubility was 0.38 ± 0.1 µM (citrate phosphate-buffered saline; 18 h, pH 7.4, 1% DMSO).
`O=C(Nc1ccc(OC(F)(F)F)cc1)N[C@H]1CC[C@H](Oc2ccc(C(=O)O)cc2)CC1` gave a solubility of 0.439 µg/mL (deionised water; 15 min, pH 6.6, 37 °C, non-sink dissolution).
`CCc1nnc(Nc2ccnc3ccc(-c4ccc(S(=O)(=O)N5CCOCC5)cc4)cc23)s1` gave a solubility of less than 0.1 µM (thermodynamic; aqueous medium).
`Clc1cc(Cl)cc([C@H]2COC[C@H](C3CCCCC3)N2)c1` has a solubility of less than 4 µM (shake-flask, LC-HRMS; aqueous buffer; 16 h, pH 6.8).
The solubility of `COc1cc(C(=O)[O-])cc(COC(=O)N(C)C(=O)c2ccc(N3C(=S)N(c4ccc(C#N)c(C(F)(F)F)c4)C(=O)C3(C)C)cc2F)c1OP(=O)([O-])[O-].[Na+].[Na+].[Na+]` is reported as greater than 49000 µg/mL (HPLC, saturated solution; HBSS; 30 s, pH 6.5).
The solubility of `O=C(NC1(C(F)(F)F)CC1)c1ccccc1` is reported as 397 µM (PBS; 2 h, pH 7.4, 25 °C, 2% DMSO).
With `CCOC(=O)N1C[C@@H](c2ccc(Cl)cc2)N[C@@H](c2ccc(C(F)(F)F)cc2)C1` the solubility was less than 4 µM (shake-flask, LC-HRMS; aqueous buffer; 16 h, pH 6.8).
`O=C(Cn1ccc([N+](=O)[O-])n1)N1CCCc2ccccc21` gave a solubility of 84 µg/mL (aqueous buffer; pH 7.4).
With `CCn1c(C(=O)N(C2CC2)C2CC2)cc2c3c(ncn3C)c(Nc3cc(C)n(C)n3)nc21` the solubility was 398 µg/mL (pH 2.13).
`CCOc1ccc(C(C)=O)cc1Cc1c(O)nc(N)nc1O` has a solubility of 8.56 µg/mL (aqueous buffer; pH 7.4).
`CCOC(=O)N1C[C@@H](c2cccnc2)N[C@@H](c2ccc(F)c(C#N)c2)C1` has a solubility of greater than 750 µM (shake-flask, LC-HRMS; aqueous buffer; 16 h, pH 6.8).
`CC1(CNC(=O)[C@H](CN)NC(=O)c2ccc(-c3ccc(Br)cc3)cc2)NC(=O)NC1=O` (stereo partly shown) has a solubility of 198 µg/mL (aqueous buffer; pH 7.4).
For `COc1ccc(-c2cc(=O)c3c(OC)cc(OC)cc3o2)cc1`, the solubility was 13120 ± 33 ppm (HPLC; ethanol:butylene glycol 50:50).
The solubility of `Cc1cccc(NS(=O)(=O)c2cc(C(=O)Nc3ccccc3C(=O)N3CCOCC3)ccc2Cl)c1` is reported as less than 3.67 µg/mL (aqueous buffer; pH 7.4).
The solubility of `Brc1cccc([C@@H]2COC[C@H](C3CCCCC3)N2)c1` is reported as less than 4 µM (shake-flask, LC-HRMS; aqueous buffer; 16 h, pH 6.8).
`N=C(N)NS(=O)(=O)c1ccc(N/C=C2\C(=O)Nc3ccccc32)cc1` gave a solubility of less than 1.53 µg/mL (aqueous buffer; pH 7.4).
For `Clc1nc(OCc2ccccc2)c2[nH]cnc2n1`, the solubility was 180 µM (UV absorbance; culture medium; stock diluted to 0.60 mM).
For `CCOC(=O)N1C[C@@H](c2ccc(C)nc2)N[C@@H](C2CCCCC2)C1`, the solubility was greater than 750 µM (shake-flask, LC-HRMS; aqueous buffer; 16 h, pH 6.8).
`c1cncc(-c2cccc(Nc3nccc(NC4CC4)n3)c2)c1` has a solubility of 39.8 ± 3.5 µM (citrate phosphate-buffered saline; 18 h, pH 7.4, 1% DMSO).
For `CCOC(=O)N1C[C@@H](c2ccc(F)cc2)N[C@@H](C2CCOCC2)C1`, the solubility was greater than 750 µM (shake-flask, LC-HRMS; aqueous buffer; 16 h, pH 6.8).
`Cc1nonc1OCCNc1cc(N2CCOCC2)ccc1[N+](=O)[O-]` gave a solubility of less than 1.5 µg/mL (aqueous buffer; pH 7.4).
For `Nc1nc2c(ncn2COCCO)c(=O)[nH]1`, the solubility was 452 µg/mL (methanol + ethanol; 24 h, 298.2 K, mass fraction 0.6).
`Clc1ccc([C@H]2COC[C@@H](c3ccc(-c4ccccn4)cc3)N2)cc1` gave a solubility of less than 4 µM (shake-flask, LC-HRMS; aqueous buffer; 16 h, pH 6.8).
`NC(=O)c1cccc2c1O/C(=C\c1ccc(C(=O)O)s1)C2=O` has a solubility of 30 µg/mL (saturation solubility; aqueous buffer; 24 h, pH 7.2, 25 °C).

For quick reference, copied from above:
With `CCn1c(C(=O)N(C2CC2)C2CC2)cc2c3c(ncn3C)c(Nc3cc(C)n(C)n3)nc21` the solubility was 398 µg/mL (pH 2.13).
`c1cncc(-c2cccc(Nc3nccc(NC4CC4)n3)c2)c1` has a solubility of 39.8 ± 3.5 µM (citrate phosphate-buffered saline; 18 h, pH 7.4, 1% DMSO).
For `CCOC(=O)N1C[C@@H](c2ccc(C)nc2)N[C@@H](C2CCCCC2)C1`, the solubility was greater than 750 µM (shake-flask, LC-HRMS; aqueous buffer; 16 h, pH 6.8).
